Measured values of several laboratories.
Protocols differ between the studies behind these lines. ± marks the error that the study gave.

The MIC of Cc1[nH]c(C(=O)Nc2ccc(C(=O)O)cc2N2CCCC(CNC(=O)OC(C)(C)C)C2)c(Cl)c1Cl (stereo not shown) is reported as greater than 32 µg/mL (Enterococcus faecium; microbial growth, broth dilution; ATCC35667).
Clc1ccc(NCc2ccc(Oc3ccccn3)cc2)cc1 has an MIC of 40 µM (Mycobacterium tuberculosis; H37Rv, 7H9/ADC/Tween medium; 1 weeks).
The MIC of Cc1ccc(S(=O)(=O)N2C(=O)CSC2c2cccc(O)c2)cc1 (stereo not shown) is reported as 64 µg/mL (Salmonella enterica; microbial growth, broth dilution; TYPHIMURIUM).
The MIC of Clc1cccc(NCc2ccc(Oc3ccccn3)cc2)c1 is reported as 80 µM (Mycobacterium tuberculosis; H37Rv, 7H9/ADC/Tween medium; 2 weeks).
The MIC of Cc1ccc(S(=O)(=O)N2C(=O)CSC2c2cccc(C)c2)cc1 (stereo not shown) is reported as 64 µg/mL (Salmonella enterica; microbial growth, broth dilution; TYPHIMURIUM).
For `pneumocandin H`, the MIC was 1.6 µg/mL (Candida tropicalis; broth microdilution, resazurin; ATCC 750; 24 h, 35 °C).
CNC(C)C1CCC(N)C(OC2C(N)CC(N)C(OC3OCC(C)(O)C(NC)C3O)C2O)O1 (stereo not shown) has an MIC of 0.12 µg/mL (Mycolicibacterium smegmatis; wild type).
CC1(C)SC2C(NC(=O)C(NC(=O)C3=C(O)C(Cc4ccc([N+](=O)[O-])cc4)NC3=O)c3ccccc3)C(=O)N2C1C(=O)O (stereo not shown) gave an MIC of 25 µg/mL (Escherichia coli; broth microdilution; BW25113, Mueller-Hinton broth; together with: CCCP 50 µg/mL).
Brc1ccc(NCc2ccc(Oc3ccccn3)cc2)cc1 has an MIC of 70 µM (Mycobacterium tuberculosis; H37Rv, 7H9/ADC/Tween medium; 1 weeks).
With `pneumocandin I` the MIC was 0.2 µg/mL (Candida tropicalis; broth microdilution, resazurin; ATCC 750; 24 h, 35 °C).
With Fc1ccccc1NCc1ccc(Oc2ccccn2)cc1 the MIC was greater than 100 µM (Mycobacterium tuberculosis; H37Rv, 7H9/ADC/Tween medium; 1 weeks).
With CC(C)(C)OCC1NC(=O)C(C(=O)NC(C(=O)NC2C(=O)N3C2SC(C)(C)C3C(=O)O)c2ccccc2)=C1O (stereo not shown) the MIC was 25 µg/mL (Escherichia coli; broth microdilution; BW25113, Mueller-Hinton broth; together with: CCCP 50 µg/mL).
With COc1cccc(NCc2ccc(Oc3ccccn3)cc2)c1 the MIC was 25 µM (Mycobacterium tuberculosis; H37Rv, GAST-Fe medium; 1 weeks, pH 6.6).
The MIC of CCc1cc(=O)c2c(OCC(O)CN(CC)CC)c3ccoc3c(OC)c2o1 (stereo not shown) is reported as greater than 256 µg/mL (Staphylococcus epidermidis; broth microdilution; ATCC 12228; 19 h, 35 °C).
For CC1(C)S[C@@H]2[C@H](NC(=O)[C@H](N)c3ccccc3)C(=O)N2[C@H]1C(=O)O, the MIC was 0.62 ± 0.3 µg/mL (Lactobacillus delbrueckii subsp. lactis; broth microdilution; ATCC 7830, MRS medium; 24 h, 37 °C).
With CCOC(=O)c1c(N)csc1-c1cn(-c2ccccc2)nc1-c1ccc(C)cc1 the MIC was 0.124 ± 0.4 µg/mL (Bacillus subtilis; broth microdilution; clinical urinary isolate; compound gamma-irradiated 10 kGy).
The MIC of `plantazolicin` is reported as greater than 48 µM (Neisseria sicca; ATCC 29256; 12 h, 37 °C).
CC1(C)SC2C(NC(=O)C(NC(=O)C3=C(O)C(Cc4ccco4)NC3=O)c3ccccc3)C(=O)N2C1C(=O)O (stereo not shown) gave an MIC of 6.25 µg/mL (Escherichia coli; broth microdilution; BW25113, Mueller-Hinton broth; 18 h, without clavulanic acid).
COC(=O)c1ccc(NC(=O)c2[nH]c(C)c(Cl)c2Cl)c(N2CCCC(CN)C2)c1.Cl (stereo not shown) has an MIC of 1 µg/mL (Enterococcus faecium; microbial growth, broth dilution; ATCC35667).
Cc1ccc(S(=O)(=O)N2C(=O)CSC2c2cccc([N+](=O)[O-])c2)cc1 (stereo not shown) has an MIC of 32 µg/mL (Salmonella enterica; microbial growth, broth dilution; TYPHIMURIUM).
For O=C(N[C@H](CO)[C@H](O)c1ccc([N+](=O)[O-])cc1)C(Cl)Cl, the MIC was less than 52 µg/mL (Bacillus subtilis; microbial growth, broth dilution).
The MIC of Cc1ccc(S(=O)(=O)N2C(=O)CSC2c2cccc(Cl)c2)cc1 (stereo not shown) is reported as 16 µg/mL (Salmonella enterica; microbial growth, broth dilution; TYPHIMURIUM).
CCc1cc(=O)c2c(OCC(O)CN3CCCCC3)c3ccoc3c(OC)c2o1 (stereo not shown) has an MIC of greater than 256 µg/mL (Staphylococcus epidermidis; broth microdilution; ATCC 12228; 19 h, 35 °C).
Brc1cccc(NCc2ccc(Oc3ccccn3)cc2)c1 gave an MIC of 35 µM (Mycobacterium tuberculosis; H37Rv, 7H9/ADC/Tween medium; 1 weeks).
For Cc1ccc(S(=O)(=O)N2C(=O)CSC2c2ccc(Cl)cc2)cc1 (stereo not shown), the MIC was 32 µg/mL (Salmonella enterica; microbial growth, broth dilution; TYPHIMURIUM).
Cc1[nH]c(C(=O)Nc2ccc(C(=O)O)cc2N2CCC[C@H](NC(=O)OC(C)(C)C)C2)c(Cl)c1Cl has an MIC of greater than 32 µg/mL (Enterococcus faecium; microbial growth, broth dilution; ATCC35667).
The MIC of CC1(C)SC2C(NC(=O)C(NC(=O)C3=C(O)CNC3=O)c3ccccc3)C(=O)N2C1C(=O)O (stereo not shown) is reported as 200 µg/mL (Escherichia coli; broth microdilution; BW25113, Mueller-Hinton broth).
For COc1ccc2ncc(F)c(CCN3CCC(/C=C\c4ccc5c(c4)NC(=O)CO5)CC3)c2n1, the MIC was 64 µg/mL (Salmonella enterica; microbial growth, broth dilution; ATCC14028 TYPHIMURIUM).
Cc1ccc(S(=O)(=O)N2C(=O)CSC2c2ccccc2F)cc1 (stereo not shown) gave an MIC of 16 µg/mL (Salmonella enterica; microbial growth, broth dilution; TYPHIMURIUM).
For Cc1[nH]c(C(=O)Nc2ccc(C(=O)O)cc2N2CCCC(CN)C2)c(Cl)c1Cl.Cl (stereo not shown), the MIC was 16 to 32 µg/mL (Enterococcus faecium; microbial growth, broth dilution; ATCC35667).
The MIC of CC1(C)S[C@@H]2[C@H](NC(=O)[C@H](N)c3ccccc3)C(=O)N2[C@H]1C(=O)O is reported as 1.56 µg/mL (Escherichia coli; broth microdilution; BW25113, Mueller-Hinton broth; together with: CCCP 50 µg/mL).
`vancomycin` has an MIC of 250 µg/mL (Enterococcus faecium; ATCC BAA-2317, VanA; 16 h, 37 °C).
With Cc1ccc(S(=O)(=O)N2C(=O)CSC2c2cccc(Br)c2)cc1 (stereo not shown) the MIC was 32 µg/mL (Salmonella enterica; microbial growth, broth dilution; TYPHIMURIUM).
`KTLTGKTITLE` has an MIC of 50 µM (Mycolicibacterium smegmatis; peptide, mc^2155, 7H9 medium; overnight, 37 °C).
